Published values of several laboratories.
Numbered parts are unrelated; each lists some results of a single study. ± gives the spread as reported.

By UniProt entry, the sequences of proteins in these tests, tags left out. Residues count along the entry.
UniProt P26045, 646-901 limits assumed: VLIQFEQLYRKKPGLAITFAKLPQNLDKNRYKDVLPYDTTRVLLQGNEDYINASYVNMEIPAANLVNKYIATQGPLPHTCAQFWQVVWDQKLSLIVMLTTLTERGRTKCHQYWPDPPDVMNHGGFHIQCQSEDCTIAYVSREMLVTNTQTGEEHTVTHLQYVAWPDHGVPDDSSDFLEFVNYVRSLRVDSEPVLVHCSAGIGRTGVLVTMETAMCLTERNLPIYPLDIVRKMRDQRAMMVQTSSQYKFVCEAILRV

Sample 1 — organism: Saccharomyces cerevisiae; observed: cell growth; method: doubling time; strain: SEC14 -136 allele; notes: Sec14 reduced ~7-fold
With `O=C(c1ccc(F)cc1)N1CCN(c2ccc(Cl)cc2)CC1` the IC50 was 48.7 ± 4.8 µM.
With `O=C(c1ccc(Cl)c([N+](=O)[O-])c1)N1CCN(c2cccc(C(F)(F)F)c2)CC1` the IC50 was 17.8 ± 4.7 µM.
For `O=C(c1ccc([N+](=O)[O-])cc1Cl)N1CCN(c2ccc(F)cc2)CC1`, the IC50 was > 200 µM.
For `Cc1ccc(N2CCN(C(=O)c3ccc(Cl)c([N+](=O)[O-])c3)CC2)cc1C`, the IC50 was 2.26 ± 0.5 µM.

Further values, each from its own experiment
The Km of `CC(=O)N[C@@H](Cc1c[nH]cn1)C(=O)N[C@@H](CC(=O)O)C(=O)NCC(=O)N[C@@H](CC(C)C)C(=O)N[C@@H](Cc1cc(=O)oc2cc(OP(=O)(O)O)ccc12)C(=O)N[C@@H](CCC(N)=O)C(=O)NCC(=O)N[C@@H](CC(C)C)C(=O)N[C@@H](CO)C(=O)N[C@H](C(=O)N[C@@H](C)C(=O)N[C@H](C(=O)N[C@@H](CCCCN)C(=O)N[C@@H](CC(=O)O)C(=O)N[C@H](C(=O)N[C@@H](Cc1ccc(O)cc1)C(=O)N[C@@H](CC(=O)O)C(=O)N[C@@H](C)C(=O)N[C@@H](CC(C)C)C(=O)N[C@@H](Cc1c[nH]cn1)C(N)=O)[C@@H](C)O)[C@@H](C)O)[C@@H](C)O` is reported as 13.7 µM (PTPN3 (Homo sapiens, UniProt P26045); peptide hydrolysis, substrate; pH 6.0, 37 °C, TCR zeta-chain ITAM peptide).
`CN(C)S(=O)(=O)c1ccc(NCCCCN2CCC(Nc3nc4ccccc4n3Cc3ccc(F)cc3)CC2)c2nonc12` gave a quantum yield of 0.0153 (hERG membranes; 2.5 µM; baseline: fluorescein).
`CC1(CNC(=O)c2ccc(C#Cc3ccccc3)cc2)NC(=O)NC1=O` (centres unmarked) gave a logD of 1.39 (octanol/buffer; pH 11).
`Cc1cc(SCc2sc(-c3ccc(C(=O)N4CCN(C)CC4)cc3)nc2C)ccc1OCC(=O)O`: CC50 “not toxic” (HEK293T; 18 h).
